Published values collected from several papers.
± marks the error that the study gave. Converted amounts (≈) assume the structure as drawn.

Cc1cc(C)cc(S(=O)(=O)c2c(C(=O)NC3CC4(C3)CN(Cc3n[nH]c(=O)[nH]3)C4)[nH]c3ccc(Cl)cc23)c1 — selectivity index (HIV-1; IIIB; baseline: CC50 over EC50): 12400
CC(=NNC(=N)N)c1nnn(-c2ccc(C#CC3(O)CCCCC3)cc2)c1C — selectivity index (Clostridioides difficile; Caco-2, ATCC BAA-1870; baseline: Caco-2 IC50 over MIC): 5.5
Cc1ccccc1CN1CCC(C(=O)N2CCc3ccccc32)CC1 — selectivity index (porcine epidemic diarrhea virus; Vero; baseline: CC50 over EC50): > 3
CCC(=O)N(C)c1ccc(Cl)c(Cl)c1 — revertant colonies (Salmonella typhimurium; Ames test; TA1535; 0.50 mg/plate, with rat liver S9): 7 ± 3.8 revertants/plate
Nc1ccn(C[C@@H](CO)OCP(=O)(O)OCCCS(=O)(=O)CCCCCCCCCCCCCC2CCC2)c(=O)n1 — therapeutic window (human adenovirus C6; tonsil 99, Syrian hamster, male, immunosuppressed; oral, 10 vs 0.3 mg/kg/day once daily): ~30 fold
N#Cc1ccc(-c2ccc(-c3cccs3)s2)cc1 — revertant colonies (Salmonella typhimurium; mutagenicity, Ames test; TA1535; 5 or 10 µM, 48 h, pH 7.4, lower tested concentration, together with: rat liver S9 mix): 15.3 ± 1.5 colonies/plate
C=CC(=O)Nc1cccc(Cn2ncc3cnc(Nc4cnn(CCOC)c4)nc32)c1 — mutagenicity (Salmonella typhimurium; Ames test; TA102; concentration not given, with and without S9): negative
CCCCCCCCC(=O)NCc1ccc(O)c(OC)c1 — IC50 (mAb 5-D8; antibody binding, indirect competitive ELISA; together with: coating antigen hapten 1-OVA): 0.0206 µg/mL (≈ 0.0702 µM)
N#Cc1ccc(-c2ccc(-c3ccco3)o2)cc1 — revertant colonies (Salmonella typhimurium; mutagenicity, Ames test; TA1535; 5 or 10 µM, 48 h, pH 7.4, lower tested concentration, together with: rat liver S9 mix): 13.3 ± 1.5 colonies/plate
COc1ccc(CNc2nc(N3CCC[C@H]3CO)ncc2C(=O)NN)cc1Cl — revertant count (Salmonella typhimurium; TA1535; 62.5 µg/plate, 48 h, together with: rat liver S9): 57 ± 2
CN(C)CC1CCCCC1(O)c1cccc(O)c1 (centres unmarked) — Papp B→A (Caco-2; 1 µM, 3 h, pH 6.8): 16.4 ×10⁻⁶ cm/s
COC(=O)c1cn([C@H]2C[C@@H](C(=O)NCc3cccc(C(F)(F)F)c3)N(C3CCN(Cc4ccccc4)CC3)C2)nn1 — selectivity index (porcine epidemic diarrhea virus; Vero; baseline: CC50 over EC50): > 2
N#Cc1ccc(-c2ccc(-c3ccco3)o2)nc1 — revertant colonies (Salmonella typhimurium; mutagenicity, Ames test; TA1535; 10 or 20 µM, 48 h, pH 7.4, higher tested concentration, together with: rat liver S9 mix): 23.7 ± 2.5 colonies/plate
Cc1cc(/C=C/C#N)cc(C)c1Oc1nc(NC2CCN(Cc3ccc(S(C)(=O)=O)cc3)CC2)nc2ncccc12 — selectivity index (HIV-1; TZM-bl, NL4-3 wild type; baseline: CC50 over EC50): 12200
N=C(N)NCCC[C@@H]1NC(=O)[C@H](CCCNC(=N)N)NC(=O)[C@H](CCCNC(=N)N)NC(=O)[C@H](CCCNC(=N)N)NC(=O)[C@H](Cc2c[nH]c3ccccc23)NC(=O)[C@H](CCCNC(=N)N)NC(=O)[C@H](CCCNC(=N)N)NC(=O)[C@@H](N)CCCCn2cc(nn2)C[C@@H](C(N)=O)NC1=O — MIC (Staphylococcus aureus; broth microdilution; ATCC 25923; 2 h, 37 °C, together with: 50% fetal bovine serum preincubation): 31.2 µg/mL (≈ 22.5 µM)
N=C(N)NCCC[C@@H]1NC(=O)[C@H](CCCCNC(=O)CCOCCOCCOCCOCCNC(=O)CN2CCN(CC(=O)O)CCN(CC(=O)O)CCN(CC(=O)O)CC2)NC(=O)[C@@H](Cc2ccccc2)NC(=O)[C@H](CC(=O)O)NC(=O)CNC1=O [indium-111 labelled] — tissue uptake (female athymic nude mice, liver; intravenous, 3 µCi, 0.5 h, U-87 MG glioma xenograft): 2.79 ± 0.02 %ID/g
N#Cc1ccc(-c2ccc(-c3cccs3)o2)nc1 — revertant colonies (Salmonella typhimurium; mutagenicity, Ames test; TA1535; 10 or 20 µM, 48 h, pH 7.4, higher tested concentration, together with: rat liver S9 mix): 34 ± 3 colonies/plate
O=C(O)CCC(NP(=O)(O)OCCC[C@@H](NC(=O)CCC(NC(=O)CCCCCNC(=O)CCCCCNC(=O)c1ccc([18F])cc1)C(=O)O)C(=O)O)C(=O)O (some centres unmarked) — tracer uptake (PC-3 tumour model; host not given, bone; intravenous, 2 h, tumour-bearing): 0.14 %ID/g
CCCC[C@H](NC(=O)CNC(=O)CNC(=O)c1ccc(NN)nc1)C(=O)N[C@H]1CC(=O)NCCCC[C@@H](C(N)=O)NC(=O)[C@H](Cc2c[nH]c3ccccc23)NC(=O)[C@H](CCCNC(=N)N)NC(=O)[C@@H](Cc2ccccc2)NC(=O)[C@H](Cc2c[nH]cn2)NC1=O [technetium-99m labelled] — tissue uptake (C57 mouse, B16/F1 melanoma-bearing, skin; intravenous, 24 h): 0.13 ± 0.02 %ID/g
COc1cc2nc(NC3CCN(Cc4ccc(C(N)=O)cc4)CC3)nc(Oc3c(C)cc(C#N)cc3C)c2cc1OC — selectivity index (HIV-1; TZM-bl, NL4-3 wild type; baseline: CC50 over EC50): 10800
N=C(N)NCCC[C@@H]1NC(=O)[C@H](CCCCNC(=O)CNC(=O)CNC(=O)CNC(=O)CC[C@H](NC(=O)CCOCCOCCOCCOCCNC(=O)CC[C@H](NC(=O)CN2CCN(CC(=O)O)CCN(CC(=O)O)CCN(CC(=O)O)CC2)C(=O)NCCOCCOCCOCCOCCC(=O)N[C@@H](CCC(=O)NCC(=O)NCC(=O)NCC(=O)NCCCC[C@@H]2NC(=O)[C@@H](Cc3ccccc3)NC(=O)[C@H](CC(=O)O)NC(=O)CNC(=O)[C@H](CCCNC(=N)N)NC2=O)C(=O)NCC(=O)NCC(=O)NCC(=O)NCCCC[C@@H]2NC(=O)[C@@H](Cc3ccccc3)NC(=O)[C@H](CC(=O)O)NC(=O)CNC(=O)[C@H](CCCNC(=N)N)NC2=O)C(=O)NCC(=O)NCC(=O)NCC(=O)NCCCC[C@@H]2NC(=O)[C@@H](Cc3ccccc3)NC(=O)[C@H](CC(=O)O)NC(=O)CNC(=O)[C@H](CCCNC(=N)N)NC2=O)NC(=O)[C@@H](Cc2ccccc2)NC(=O)[C@H](CC(=O)O)NC(=O)CNC1=O [indium-111 labelled] — tissue uptake (female athymic nude mice, kidney; intravenous, 3 µCi, 0.5 h, U-87 MG glioma xenograft): 10.7 ± 2.13 %ID/g
COc1ccc(CNc2nc(N3CCC[C@H]3CO)ncc2C(=O)NNC(=O)c2cnc(N3CCC[C@H]3CO)nc2NCc2ccc(OC)c(Cl)c2)cc1Cl — revertant count (Salmonella typhimurium; TA98; 500 µg/plate, 48 h): 26 ± 4
CN[C@](C)(C[18F])C(=O)O — tracer uptake (A549 tumour model; host not given, pancreas; 2 h, tumour-bearing): 11.2 %ID/g
N=C(N)c1ccc(-c2ccc(-c3cccs3)o2)nc1 — revertant colonies (Salmonella typhimurium; mutagenicity, Ames test; TA1535; 5 or 10 µM, 48 h, pH 7.4, lower tested concentration, together with: rat liver S9 mix): 30.3 ± 3.5 colonies/plate
c1ccc(CN2CCOCCOCCN(CCCCCCCCCCCCCCN3CCOCCOCCN(CCCCCCCCCCCCCCN4CCOCCOCCN(Cc5ccccc5)CCOCCOCC4)CCOCCOCC3)CCOCCOCC2)cc1 — membrane permeability (Staphylococcus aureus; propidium iodide uptake; 1199B; 1 µM or 2 µM): increased
N#Cc1ccc(-c2ccc(-c3cccs3)o2)cc1 — revertant colonies (Salmonella typhimurium; mutagenicity, Ames test; TA1535; 5 or 10 µM, 48 h, pH 7.4, lower tested concentration, together with: rat liver S9 mix): 15.3 ± 4.2 colonies/plate
CC(=O)N(O)CCCP(=O)(O)O — revertant count (Salmonella typhimurium; Ames test; TA100; 100 µg/plate, without S9): 48 colonies
N=C(N)c1ccc(-c2ccc(-c3cccs3)o2)cc1 — revertant colonies (Salmonella typhimurium; mutagenicity, Ames test; TA1535; 10 or 20 µM, 48 h, pH 7.4, higher tested concentration, together with: rat liver S9 mix): 13.7 ± 1.5 colonies/plate
O=C(O)CCC(NP(=O)(O)OCCC[C@@H](NC(=O)CCC(NC(=O)c1ccc([18F])cc1)C(=O)O)C(=O)O)C(=O)O (some centres unmarked) — tracer uptake (PC-3 tumour model; host not given, spleen; intravenous, 2 h, tumour-bearing): 0.76 %ID/g

A few entries again:
CN(C)CC1CCCCC1(O)c1cccc(O)c1 (centres unmarked) — Papp B→A (Caco-2; 1 µM, 3 h, pH 6.8): 16.4 ×10⁻⁶ cm/s
O=C(O)CCC(NP(=O)(O)OCCC[C@@H](NC(=O)CCC(NC(=O)c1ccc([18F])cc1)C(=O)O)C(=O)O)C(=O)O (some centres unmarked) — tracer uptake (PC-3 tumour model; host not given, spleen; intravenous, 2 h, tumour-bearing): 0.76 %ID/g
N#Cc1ccc(-c2ccc(-c3cccs3)s2)cc1 — revertant colonies (Salmonella typhimurium; mutagenicity, Ames test; TA1535; 5 or 10 µM, 48 h, pH 7.4, lower tested concentration, together with: rat liver S9 mix): 15.3 ± 1.5 colonies/plate
N#Cc1ccc(-c2ccc(-c3cccs3)o2)nc1 — revertant colonies (Salmonella typhimurium; mutagenicity, Ames test; TA1535; 10 or 20 µM, 48 h, pH 7.4, higher tested concentration, together with: rat liver S9 mix): 34 ± 3 colonies/plate
N=C(N)NCCC[C@@H]1NC(=O)[C@H](CCCCNC(=O)CNC(=O)CNC(=O)CNC(=O)CC[C@H](NC(=O)CCOCCOCCOCCOCCNC(=O)CC[C@H](NC(=O)CN2CCN(CC(=O)O)CCN(CC(=O)O)CCN(CC(=O)O)CC2)C(=O)NCCOCCOCCOCCOCCC(=O)N[C@@H](CCC(=O)NCC(=O)NCC(=O)NCC(=O)NCCCC[C@@H]2NC(=O)[C@@H](Cc3ccccc3)NC(=O)[C@H](CC(=O)O)NC(=O)CNC(=O)[C@H](CCCNC(=N)N)NC2=O)C(=O)NCC(=O)NCC(=O)NCC(=O)NCCCC[C@@H]2NC(=O)[C@@H](Cc3ccccc3)NC(=O)[C@H](CC(=O)O)NC(=O)CNC(=O)[C@H](CCCNC(=N)N)NC2=O)C(=O)NCC(=O)NCC(=O)NCC(=O)NCCCC[C@@H]2NC(=O)[C@@H](Cc3ccccc3)NC(=O)[C@H](CC(=O)O)NC(=O)CNC(=O)[C@H](CCCNC(=N)N)NC2=O)NC(=O)[C@@H](Cc2ccccc2)NC(=O)[C@H](CC(=O)O)NC(=O)CNC1=O [indium-111 labelled] — tissue uptake (female athymic nude mice, kidney; intravenous, 3 µCi, 0.5 h, U-87 MG glioma xenograft): 10.7 ± 2.13 %ID/g
